{"data": "Assay results gathered from unrelated publications", "PDGFRA": "Platelet-derived growth factor receptor alpha (PDGFRA, Homo sapiens, UniProt P16234)", "note": "Lines come from different studies, so protocols differ. “And” joins repeats or separate records; there may be more than shown.", "sequence of UniProt P16234 (whole entry, unmodified, looked up)": "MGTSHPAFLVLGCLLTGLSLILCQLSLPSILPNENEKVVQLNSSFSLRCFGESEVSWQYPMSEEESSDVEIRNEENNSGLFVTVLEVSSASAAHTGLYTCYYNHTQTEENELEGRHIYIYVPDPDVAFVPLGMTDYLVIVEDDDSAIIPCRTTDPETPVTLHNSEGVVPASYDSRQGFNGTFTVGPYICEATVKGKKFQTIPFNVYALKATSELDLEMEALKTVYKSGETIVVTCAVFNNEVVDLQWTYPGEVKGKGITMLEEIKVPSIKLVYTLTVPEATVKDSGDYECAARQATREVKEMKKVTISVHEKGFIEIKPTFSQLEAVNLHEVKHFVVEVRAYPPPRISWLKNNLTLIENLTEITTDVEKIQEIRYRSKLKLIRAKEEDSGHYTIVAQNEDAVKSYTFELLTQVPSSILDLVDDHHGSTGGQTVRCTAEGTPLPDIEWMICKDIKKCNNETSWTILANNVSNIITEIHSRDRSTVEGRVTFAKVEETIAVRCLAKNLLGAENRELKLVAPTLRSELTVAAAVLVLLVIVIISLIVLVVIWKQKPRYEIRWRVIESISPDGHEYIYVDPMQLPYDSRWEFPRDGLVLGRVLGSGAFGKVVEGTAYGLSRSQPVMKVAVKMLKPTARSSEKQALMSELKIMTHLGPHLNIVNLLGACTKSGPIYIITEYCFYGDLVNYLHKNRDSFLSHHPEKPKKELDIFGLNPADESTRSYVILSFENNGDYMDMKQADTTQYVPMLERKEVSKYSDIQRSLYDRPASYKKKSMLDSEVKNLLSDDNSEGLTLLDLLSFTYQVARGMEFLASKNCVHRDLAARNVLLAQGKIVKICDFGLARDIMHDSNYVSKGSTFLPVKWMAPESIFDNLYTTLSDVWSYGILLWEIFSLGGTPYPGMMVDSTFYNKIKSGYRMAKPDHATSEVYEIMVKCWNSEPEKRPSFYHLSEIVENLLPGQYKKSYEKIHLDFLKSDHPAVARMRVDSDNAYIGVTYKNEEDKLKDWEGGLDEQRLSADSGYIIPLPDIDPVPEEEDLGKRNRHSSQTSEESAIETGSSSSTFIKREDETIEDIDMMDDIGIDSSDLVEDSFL"}
{"SMILES": "COCC12C(=O)NC3C4(C(OC)CC1O)C1CC5(O)C(OC)C(O)C(OC(C)=O)(C1C5OC(=O)c1ccccc1)C3(O)C(OC)C24 (stereo not drawn)", "target": "PDGFRA", "assay": "kinase activity, inhibitor, ProQinase kinase profiling", "conditions": "25 µM", "scale": "reference: control", "endpoint": "remaining activity", "result": "103%"}
{"SMILES": "Cc1cccc(O[C@H]2CCC[C@@H](C(C)CNCc3ccncc3)C2)c1 (relative stereo)", "target": "PDGFRA", "assay": "enzyme activity, inhibitor", "conditions": "1 µM", "endpoint": "inhibition", "result": "4%"}
{"SMILES": "Cc1cnc2nc1Nc1cccc(c1)COC/C=C/COCc1cc(ccc1OCCN1CCOCC1)N2", "target": "PDGFRA", "assay": "binding", "conditions": "0.1 µM", "endpoint": "remaining binding", "result": "92%"}
{"SMILES": "COc1ccc(NC(=O)Nc2ccc3c(c2)C(=O)N(C(C)CO)CC(C)C(CN(C)Cc2ccc4c(c2)OCO4)O3)cc1 (stereo not drawn)", "target": "PDGFRA", "assay": "kinase activity, KinaseProfiler", "conditions": "0.03 µM, species human", "scale": "reference: control", "endpoint": "remaining activity", "result": "102%"}
{"SMILES": "C=CC(=O)Nc1cccc(-c2cnc3[nH]cc(C(=O)NC(C)(C)C)c3n2)c1", "target": "PDGFRA", "assay": "kinase activity", "conditions": "0.1 µM", "endpoint": "inhibition", "result": "25% and 20%"}
{"SMILES": "O=C(Cc1ccc(OCc2ccccc2)cc1)NC1(C(=O)O)CCN(C(=O)c2ccc(-c3cccc(Cl)c3)cc2)CC1", "target": "PDGFRA", "assay": "enzyme activity, inhibitor", "conditions": "10 µM", "endpoint": "activity vs control", "result": "121%"}
{"SMILES": "O=C(Nc1ccc(Oc2ncnc3[nH]cc(-c4ccccc4)c23)c(F)c1)c1c2n(n(-c3cc(F)ccc3F)c1=O)CCCC2", "target": "PDGFRA", "assay": "enzyme activity, inhibitor", "conditions": "0.5 µM", "endpoint": "inhibition", "result": "19%"}
{"SMILES": "CNc1ccc(-c2n[nH]c3c2CCN(C(=O)c2ccccc2)C3)cc1", "target": "PDGFRA", "assay": "cell-free assay, competition with immobilised ligand", "conditions": "10 µM", "endpoint": "remaining binding", "result": "26%"}
{"SMILES": "C=C1CCCCCCCCCC(CO)C1=O (stereo not drawn)", "target": "PDGFRA", "assay": "cell-free assay", "conditions": "10 µM", "endpoint": "remaining signal", "result": "100%"}
{"SMILES": "O=C=[N][Ru-4]123([n]4c5ccc(O)cc5c5c6c(c7cc(F)c[n+]1c7c54)C(=O)NC6=O)[S+]1CC[S+]2CC[S+]3CC1 (stereo not drawn)", "target": "PDGFRA (Homo sapiens, UniProt P16234, V561D)", "assay": "enzyme activity", "conditions": "100 nM, human enzyme, together with: 10 µM ATP", "scale": "reference: untreated", "endpoint": "remaining activity", "result": "65%"}
{"SMILES": "COc1cc(-n2cc3cc(F)cc(C(N)=O)c3n2)cc(Cl)c1C1CC(O)(CCO)Cc2ccccc21 (stereo not drawn)", "target": "PDGFRA", "assay": "enzyme activity, inhibitor", "conditions": "10 µM", "endpoint": "inhibition", "result": "3.36%"}
{"SMILES": "COc1cc(Nc2nccc(-c3cnn4nc(OC)ccc34)n2)cc(C(F)(F)F)c1", "target": "PDGFRA", "assay": "binding, competition with immobilised ligand", "conditions": "1 µM", "endpoint": "remaining binding", "result": "92%"}
{"SMILES": "COc1c(OCCCN2CCOCC2)ccc2c1N=C(NC(=O)c1cnc(N)nc1)N1CCN=C21", "target": "PDGFRA", "assay": "kinase activity, inhibitor", "conditions": "1 µM", "scale": "reference: untreated control", "endpoint": "remaining activity", "result": "97%"}
{"SMILES": "CN1CCN(Cc2ccc(-c3ccc(CO[C@H]4CCC[C@@H]4NC(=O)c4cc(-c5cnn(C)c5)cnc4N)cc3)cc2)CC1", "target": "PDGFRA", "assay": "enzyme activity, inhibitor", "conditions": "0.1 µM", "endpoint": "inhibition", "result": "3%"}
{"SMILES": "Nc1ncc(-c2cc(-c3cnn(CC(F)(F)F)c3)ncc2F)nc1C(=O)NC1CNCC(F)C1 (stereo not drawn)", "target": "PDGFRA", "assay": "enzyme activity", "conditions": "1 µM", "scale": "reference: DMSO control", "endpoint": "remaining activity", "result": "100%"}
{"SMILES": "CN1CC[C@@H](COc2cnc(C#N)cc2-c2ccn3nc(NC(=O)C4CC4)cc3c2)C1", "target": "PDGFRA", "assay": "enzyme activity, inhibitor", "conditions": "1 µM", "endpoint": "inhibition", "result": "2%"}
{"SMILES": "Cc1ccc(-c2c(/C=C(\\C#N)C(=O)NC(C)C)n(CCCO)c3ncnc(N)c23)cc1", "target": "PDGFRA", "assay": "cell-free assay, competition with immobilised ligand", "conditions": "1 µM", "endpoint": "remaining binding", "result": "54%"}
{"SMILES": "C=CC(=O)N1CCc2ccc(-n3c(=O)ccc4cnc5ccc(-c6cnn(C)c6)cc5c43)cc21", "target": "PDGFRA", "assay": "KINOMEscan", "conditions": "1 µM", "scale": "reference: DMSO control", "endpoint": "remaining binding", "result": "69%"}
{"SMILES": "CN1CCN(Cc2ccc(NC(=O)c3cccc(C#Cc4cnc(N)c5ncccc45)c3)cc2C(F)(F)F)CC1", "target": "PDGFRA", "assay": "cell-free assay, competition with immobilised ligand", "conditions": "0.5 µM", "endpoint": "remaining binding", "result": "0.3%"}
{"SMILES": "CC(C)=CC1OC(C)(C)C2C=C3C(=O)C(Cl)=CC(O)C3C3C(O)C4OC4C(=O)C132 (stereo not drawn)", "target": "PDGFRA", "assay": "cell-free assay, competition with immobilised ligand", "conditions": "10 µM", "endpoint": "remaining binding", "result": "68%"}
{"SMILES": "COc1cc(OC)c(F)c(/C=C/c2cnc3ccn(S(=O)(=O)c4cn(CCF)cn4)c3n2)c1F", "target": "PDGFRA", "conditions": "10 nM", "endpoint": "inhibition", "result": "0%"}
{"SMILES": "CCn1cc(C(=O)O)c(=O)c2c(N)c(F)c(NC3CCCCC3)cc21", "target": "PDGFRA", "assay": "kinase activity", "conditions": "0.1 µM, together with: ATP at Km", "endpoint": "inhibition", "result": "-1.7%"}
{"SMILES": "Nc1ncc2c(n1)-c1c([nH]c3ccc(C4=CCOCC4)cc13)CCC2", "target": "PDGFRA", "assay": "binding, competition with immobilised ligand", "conditions": "1 µM", "endpoint": "remaining binding", "result": "100%"}
{"SMILES": "NC(=O)C[C@H]1CCc2sc3ncnc(O[C@H]4CC[C@H](N5CCOCC5)CC4)c3c21", "target": "PDGFRA", "assay": "enzyme activity, inhibitor", "conditions": "10 µM", "endpoint": "inhibition", "result": "7%"}
{"note": "Excerpt of the above:"}
{"SMILES": "CN1CCN(Cc2ccc(-c3ccc(CO[C@H]4CCC[C@@H]4NC(=O)c4cc(-c5cnn(C)c5)cnc4N)cc3)cc2)CC1", "target": "PDGFRA", "assay": "enzyme activity, inhibitor", "conditions": "0.1 µM", "endpoint": "inhibition", "result": "3%"}
{"SMILES": "Nc1ncc(-c2cc(-c3cnn(CC(F)(F)F)c3)ncc2F)nc1C(=O)NC1CNCC(F)C1 (stereo not drawn)", "target": "PDGFRA", "assay": "enzyme activity", "conditions": "1 µM", "scale": "reference: DMSO control", "endpoint": "remaining activity", "result": "100%"}
